Measurements gathered from unrelated publications.
Each numbered part is a random draw from the data of one study; scales do not carry over between parts. Changes are numbered by the printed parent chain.

Series 1
Target: Fragile X messenger ribonucleoprotein 1, C-terminal low-complexity region (Fmr1, Mus musculus, UniProt P35922)
Technique: RNA Bind-n-Seq
Molecule type: RNA
Matrix: in vitro
Concentration: 200 nM
Notes: whole 134-nt RNA, ends assumed
Added: 150 mM KCl
Reference: input library
Reading: higher = stronger binding
| Oligonucleotide | log2 enrichment |
| --- | --- |
| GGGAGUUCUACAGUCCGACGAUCGUCCUGUGCUACACAUCGUAUGUACCGAAUCGGGGAGGGGUUUGGGGUUUUUUUGGGGAAAGUAUUAUGUUACGCCGUUCGGAUCUGCACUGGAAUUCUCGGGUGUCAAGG | 0.479 |
| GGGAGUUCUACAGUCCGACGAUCUCCUGUGCUACACAUCGUAUGUACCGAAUCGGGGUUUUUGGGGAAAAAAAGGGGAGGGGAAAGUAUUAUGUUACGCCGUUCGGAUCUGCAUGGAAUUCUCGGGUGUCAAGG | 0.603 |
| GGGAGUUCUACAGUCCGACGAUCACCAUGCAGGUGGGCAUCUUUGGGAAGUGGGGCAAGGGGGGGAUAGGGAGGGAGGUAACACUUUGGGAACAGGUGGUCCCAGGUCGUUUCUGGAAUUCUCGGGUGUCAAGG | 0.868 |
| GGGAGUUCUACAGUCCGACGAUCAGUCCUGUGCUACACAUCGUAUGUACCGAAUCAAAUUUUUAAACCCCCAAAUUUAAAAAAGUAUUAUGUUACGCCGUUCGGAUCUGCACUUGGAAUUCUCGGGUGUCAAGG | -0.128 |
| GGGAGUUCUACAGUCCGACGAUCGCAGGAAGUAAAAACAAAUGGAAAUGCUUCGGAUAGUGGCAGGGGUGGGGGUUGCUAAGGAAAGGGUGGGAUAGGAGUGGGUAAAGAGUUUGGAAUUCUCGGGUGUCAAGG | 0.257 |
| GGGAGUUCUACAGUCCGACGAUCAAGUCCUGUGCUACACAUCGUAUGUACCGAAUCGGGAAAGGGAGGGAAAAAAAGGGAAAGUAUUAUGUUACGCCGUUCGGAUCUGCACUUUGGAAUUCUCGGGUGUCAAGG | 0.268 |
| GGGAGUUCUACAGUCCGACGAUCCCUGUGCUACACAUCGUAUGUACCGAAUCGGGUUUUUUUGGGAAAAAGGGUUUUUUUGGGAAAGUAUUAUGUUACGCCGUUCGGAUCUGCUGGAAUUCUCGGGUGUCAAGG | -0.827 |

Series 2
Target: Prothrombin, mature alpha-thrombin (F2, Homo sapiens, UniProt P00734)
Technique: aptamer microarray, sandwich
Molecule type: DNA with 2'F-ANA
Matrix: in vitro
Concentration: 200 nM
Notes: whole 15-mer aptamer, many near background
Added: Cy3 exosite-II aptamer, 400 nM
Reading: higher = stronger binding
Oligonucleotide: GGTTGGTGTGGTTGG
| Modification | mean fluorescence intensity [a.u.] |
| --- | --- |
| 2'F-ANA at 1 2 3 5 7 10 14 15 | 45.8 |
| 2'F-ANA at 1 3 4 5 6 7 10 12 | 132 |
| 2'F-ANA at 1 4 6 11 12 13 | 146 |
| 2'F-ANA at 4 8 10 14 | 55.7 |
| 2'F-ANA at 1 2 3 4 7 9 11 13 14 15 | 62.1 |
| 2'F-ANA at 5 6 8 10 13 15 | 44.9 |
| 2'F-ANA at 2 6 10 14 15 | 78.9 |

Series 3
Target: CCNB1, cyclin fold, Cln2 fusion (human)
Technique: yeast growth competition, sequencing
Matrix: yeast
Notes: weak parent motif
Reference: not given
Reading: higher = stronger binding
Parent: SCAPER docking peptide (human); SNARRSLNFGGST
| Substitution | normalised enrichment score |
| --- | --- |
| N2K | 0.0496 |
| G11T | 1.2 |
| S1F | 1.31 |
| N8K | 0.852 |
| R5F | 0.56 |
| F9C | 0.412 |
| R5A L7A | -0.11 |

Further values, each from its own experiment
| Molecule | target | assay | system | conditions | how to read | measurement | result |
| --- | --- | --- | --- | --- | --- | --- | --- |
| PhoQ, residues 284 288 289 292 302 303 GASLAW | PhoP, residues 12 14 15 18 19 GQAIL (Escherichia coli, UniProt P23836) | Sort-seq, item: YFP reporter | E. coli | PhoQ-PhoP variant library, added: 10 µM Mg2+ | reference: high Mg2+ state, higher = stronger signaling | fold induction | 5.79 |

For quick reference, copied from above (series 3):
| Substitution | normalised enrichment score |
| --- | --- |
| S1F | 1.31 |
| F9C | 0.412 |
| R5F | 0.56 |
